Measured values gathered from unrelated publications.
Each numbered part is a random draw from the data of one study; scales do not carry over between parts.

Sample 1
Target: RNA binding protein fox-1 homolog 2, RRM domain, GST-SBP tag (RBFOX2, Homo sapiens, UniProt O43251-10, residues 100-194)
Method: RNA Bind-n-Seq
Molecule type: RNA
Medium: in vitro
Tested at: 365 nM
Notes: natural RNA segment, single round, ends assumed
Baseline: no-protein control
Direction: higher = stronger binding
Construct (chain): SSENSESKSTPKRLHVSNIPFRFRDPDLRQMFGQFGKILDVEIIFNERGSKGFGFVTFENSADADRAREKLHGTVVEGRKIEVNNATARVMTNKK
| Sequence | RBNS enrichment (R) |
| --- | --- |
| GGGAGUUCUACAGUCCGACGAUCCCUAUCAUCUUGUUAACACUAGAUUCUUCUGAGAUUCAAAAAGAAAAAUCACUGUCAGAGCUAGCCUUGCCUAGUGAGUCUGUGUCCACAGGCUGUAACAGGGUGGAAGAUGGAAUUCUCGGGUGCCAA | 0.567 |
| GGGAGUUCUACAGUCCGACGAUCGCUUCAGUGGCCACCAGCCUCGUCACAUACACCAGCAUCUUUCUGUACCUCCUCCCUUUGGUGACCUGAAGUCACUGUGACAGUUCUCCAGGAAGGAGGAGCUUCCUACUUGGAAUUCUCGGGUGCCAA | 0.719 |
| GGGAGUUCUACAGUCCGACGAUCUUGUCUAGUUUAAUCCUACCUUUAAUAGUUGUGUUUGGUAAAAUUCCCACUUGAAUGUGACACUGAUAAUAAUUAUGCUGAUUUUUAGCAUCUCUUAUAGGAAUCAAAGUUGGAAUUCUCGGGUGCCAA | 3.27 |
| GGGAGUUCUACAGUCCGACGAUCAUCUUUUAACUAGUGUUUCACAAGGAUCCUCUGAAACCCUCUCUGUGCCCCAAGUACAGAUGCCAUUACUUCUGCUUUCGUAUCUCCUCAGGCAAAAGUGGAGGGUGCCUUGGAAUUCUCGGGUGCCAA | 0.261 |
| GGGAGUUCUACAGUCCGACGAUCAUCAUCUUGAAUCCUCCACAAAUACAGAUACAGUCCCAAGGGAGGUAGUCGUAGAAAUGGAAGACGCCAGCCCUGCGCAGCCUGCAGGGACAUCCGCCAGGCUUCCCCUCUGGAAUUCUCGGGUGCCAA | 0.321 |
| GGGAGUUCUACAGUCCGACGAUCAGAUGGAAUCUUGGGGACAGGAGGGAGAGGGUUGGUAACUACUGUGAGCAAGUCCCCCAAGCCCUGACCAGCCUCCUCCCAUGACUGGUGACUGUUUAACAAGCUGUGCAUGGAAUUCUCGGGUGCCAA | 4.38 |
| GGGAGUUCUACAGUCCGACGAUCUCCUUUCUUUUUACACAUCCUACUGUCCCUUAGGGUAAAAUUUUCAGCAUUAAAUAAAACAUUUCAAAUAUAUUGUAUAUGGCUUUAGUUGUAAACUAUACUGCAUGCUGUGGAAUUCUCGGGUGCCAA | 5.11 |
| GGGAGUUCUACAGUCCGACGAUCACAGUGCUGAAAUCAGGUGGUUAAACGGGUAAACAAAAUAUACUGUAUUUUGAGAAAUGGCACAAAAACAGGCAGUCAUCUUUAAGGGCUAUGCCUAGGCAAACUACUAAUGGAAUUCUCGGGUGCCAA | 0.361 |

Sample 2
Target: PABPC1L2, full length, GST fusion (mouse, UniProt A0ABA7IW68)
Method: RNAcompete
Molecule type: RNA
Medium: in vitro
Tested at: 20 nM
Notes: 7-mer, probes averaged, single round
Baseline: mean of 7-mers
Direction: higher = stronger binding
Construct (chain): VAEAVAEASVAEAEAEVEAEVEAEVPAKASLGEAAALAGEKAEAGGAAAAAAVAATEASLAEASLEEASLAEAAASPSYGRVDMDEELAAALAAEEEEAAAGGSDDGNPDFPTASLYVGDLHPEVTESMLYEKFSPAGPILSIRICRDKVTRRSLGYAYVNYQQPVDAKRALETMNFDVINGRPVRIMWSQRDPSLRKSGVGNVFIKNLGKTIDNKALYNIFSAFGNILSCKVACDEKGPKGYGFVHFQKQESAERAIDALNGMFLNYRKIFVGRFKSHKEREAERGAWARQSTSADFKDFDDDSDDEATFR
| Sequence | 7-mer Z-score |
| --- | --- |
| CUCGCAA | -0.264 |
| UUUUUCA | -0.211 |
| GAGAUAU | -0.157 |
| AAUGAAC | 0.343 |
| CGUUAAU | -0.298 |
| AAUCGUG | 0.218 |
| UCUUGGC | -0.211 |
| CCGGCGU | -0.313 |
| CAGGUUG | -0.0627 |
| ACCCGUG | -0.238 |
| CGAGUCA | -0.267 |
| UAUGUCG | -0.275 |
| GUUAGAG | -0.0645 |
| ACCUGGC | -0.26 |
| ACUAUGA | -0.0681 |
| GUAUGCU | -0.151 |
| UAUAGCG | -0.253 |
| GGUCGGG | 0.0932 |
| GGUGACA | 0.202 |
| UCAGGUG | -0.0989 |
| AGCGAUA | 0.117 |

Sample 3
Target: Prothrombin, mature alpha-thrombin (F2, Homo sapiens, UniProt P00734)
Method: aptamer microarray, sandwich
Molecule type: DNA with 2'F-ANA
Medium: in vitro
Tested at: 200 nM
Notes: whole 15-mer aptamer, many near background
Added: Cy3 exosite-II aptamer, 400 nM
Direction: higher = stronger binding
Sequence: GGTTGGTGTGGTTGG
| Modification | mean fluorescence intensity [a.u.] |
| --- | --- |
| 2'F-ANA at 1 3 5 9 12 13 14 | 46.1 |
| 2'F-ANA at 2 4 5 10 14 | 42.5 |
| 2'F-ANA at 1 2 6 8 9 11 12 13 14 15 | 77.9 |
| 2'F-ANA at 1 2 4 5 7 12 15 | 110 |
| 2'F-ANA at 3 6 9 10 11 12 14 | 381 |
| 2'F-ANA at 4 8 9 12 14 15 | 120 |
| 2'F-ANA at 1 3 5 6 7 8 11 12 13 14 15 | 52 |
| 2'F-ANA at 3 4 5 8 9 11 13 | 68.5 |
| 2'F-ANA at 2 4 5 6 8 9 11 | 89.1 |
| 2'F-ANA at 1 2 4 5 7 8 9 11 13 14 15 | 50.4 |
| 2'F-ANA at 3 4 5 6 8 11 12 13 14 | 48.9 |
| 2'F-ANA at 1 2 4 5 7 8 9 12 14 15 | 48.1 |
| 2'F-ANA at 1 4 5 6 8 10 11 13 14 | 48.5 |
| 2'F-ANA at 1 2 3 4 5 6 7 8 10 12 | 61.9 |
| 2'F-ANA at 1 2 3 4 7 10 13 15 | 56.7 |
| 2'F-ANA at 1 2 3 4 5 8 12 13 14 15 | 52.4 |
| 2'F-ANA at 1 3 4 5 6 7 9 10 12 13 14 15 | 154 |
| 2'F-ANA at 1 2 3 5 7 8 9 10 11 14 | 47.5 |
| 2'F-ANA at 1 2 4 6 8 9 10 13 14 | 56 |
| 2'F-ANA at 1 2 4 10 11 13 14 15 | 78.3 |
| 2'F-ANA at 1 2 3 4 5 8 10 11 12 14 15 | 58.2 |
| 2'F-ANA at 4 5 6 10 13 14 | 43.3 |
| 2'F-ANA at 3 7 8 11 13 14 15 | 584 |

Sample 4
Target: RING finger protein unkempt homolog, zinc fingers 1-6, SBP tag (UNK, Homo sapiens, UniProt Q9C0B0, residues 30-357)
Chain of UniProt Q9C0B0 (30-357, looked up): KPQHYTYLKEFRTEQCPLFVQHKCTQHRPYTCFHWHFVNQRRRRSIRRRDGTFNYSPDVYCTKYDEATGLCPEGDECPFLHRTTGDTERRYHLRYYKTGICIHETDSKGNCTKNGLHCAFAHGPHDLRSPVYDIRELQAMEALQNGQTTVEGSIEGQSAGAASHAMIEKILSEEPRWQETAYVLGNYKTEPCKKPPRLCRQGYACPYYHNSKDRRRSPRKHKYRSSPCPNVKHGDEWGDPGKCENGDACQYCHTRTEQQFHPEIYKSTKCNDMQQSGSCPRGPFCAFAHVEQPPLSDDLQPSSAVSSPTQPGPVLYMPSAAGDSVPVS
Method: RNA Bind-n-Seq
Molecule type: RNA
Medium: in vitro
Tested at: 100 nM
Notes: RNA with constant flanks, vertebrate orthologous sites, ends assumed
Baseline: input RNA pool
Direction: higher = stronger binding
| Sequence | bound/input enrichment [ratio] |
| --- | --- |
| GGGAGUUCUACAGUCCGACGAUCAGCUUCUGGAGACAUUUGGCCUGGCCUUUCAGCGUAUGAUAACAGUCCAAGGUCACCCCAUAGUCCUUCUAUUGCCUCCCCGCCUAGUCAGAGUUCAUCUUGCUCUGAUGCCCCUCUGCUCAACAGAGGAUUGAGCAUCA | 0.814 |
| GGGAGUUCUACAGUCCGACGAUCAGCAACCCAAGGAUUCAGGACUGGUUUUACAAAUAUGCCAAGUCGGUAUGGAACUAACAAUAGAAUUGGACAACCAAGACCAUGAUGUACUGUAAUUUAAUUUAUUUUUAUGAGGAAUAUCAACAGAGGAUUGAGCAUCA | 0.948 |
| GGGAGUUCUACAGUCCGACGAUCCAAUUCGAUGGUCGAGGGUUCAGAACUCAAAAAGGUUCGCUCCAACUCCAGGAUUUACCAUAGGUAUUUUUUACUGGAUGCUGACAUGCAGAGCCUGAGGUGGGAACCAUCUAAGAAAGACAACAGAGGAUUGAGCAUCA | 0.141 |
| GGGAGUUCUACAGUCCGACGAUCAGGGAGAAGAGCUCACAAACUCAAAGGAGAACUAGGAAAGAGUUUCUAAUAGUUAAAAGCUAGGAAAGAUUAGGACAACUUUACAAAUGAGCAAUUAAAAAAAAAAGGAUAUGGAAACUACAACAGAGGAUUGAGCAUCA | 0.864 |
| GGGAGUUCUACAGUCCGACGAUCUAUUAGUGUCGUACCAGCCUAUUAACCUCUCGUCUGUGCACAGCUUCAAAUGUUACCGUCUAGUUAGAUUUUUAUUUAAAAUAUGAAAAACUGCUUUUCCCAAGACGUUUUUUAGAAACACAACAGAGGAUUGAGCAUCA | 1.59 |
| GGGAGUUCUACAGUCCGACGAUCGAGCUAAAGGAGUUAGCAUCUUUAUUUUUGUAUCAAAGAUAAAGGUUAUUUUGAAAUUAUCAGGAUUUUUACACAACUCUGAAAUCUGUUGCUUUUGUAAACCAAUUGUUUGAUCUUAGGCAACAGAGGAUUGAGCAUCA | 0.363 |
| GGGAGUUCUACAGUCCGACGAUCGCUCUAGUCCUUAAGAACCAACACUCCUAAAAGAUUUAGAAAAAAGUUUACAACAUAAUCUAGUUUACGAAGAAGCCUUGUGCUAGAAUACUUUUUAAAAAGUAUUUUUGAAUACCAUUACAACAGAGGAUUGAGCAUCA | 1.16 |
| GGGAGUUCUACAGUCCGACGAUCGGACUAAUUUGAUUUUUUAACCCCUUAUUUUCCUGAUUUAACCCCCCUCUUUUUUCUUAAGCAUAUGUAGUAACGUUAGCAGAAAGUUAAUUUGGAAAACUGAUUCUUAAAAAGAAAACACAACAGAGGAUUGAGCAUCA | 0.323 |

For quick reference, copied from above (sample 1):
| Sequence | RBNS enrichment (R) |
| --- | --- |
| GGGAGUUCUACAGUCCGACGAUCUCCUUUCUUUUUACACAUCCUACUGUCCCUUAGGGUAAAAUUUUCAGCAUUAAAUAAAACAUUUCAAAUAUAUUGUAUAUGGCUUUAGUUGUAAACUAUACUGCAUGCUGUGGAAUUCUCGGGUGCCAA | 5.11 |
| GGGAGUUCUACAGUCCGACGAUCAGAUGGAAUCUUGGGGACAGGAGGGAGAGGGUUGGUAACUACUGUGAGCAAGUCCCCCAAGCCCUGACCAGCCUCCUCCCAUGACUGGUGACUGUUUAACAAGCUGUGCAUGGAAUUCUCGGGUGCCAA | 4.38 |
| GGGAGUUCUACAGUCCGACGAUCAUCAUCUUGAAUCCUCCACAAAUACAGAUACAGUCCCAAGGGAGGUAGUCGUAGAAAUGGAAGACGCCAGCCCUGCGCAGCCUGCAGGGACAUCCGCCAGGCUUCCCCUCUGGAAUUCUCGGGUGCCAA | 0.321 |
| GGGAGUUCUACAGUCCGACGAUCCCUAUCAUCUUGUUAACACUAGAUUCUUCUGAGAUUCAAAAAGAAAAAUCACUGUCAGAGCUAGCCUUGCCUAGUGAGUCUGUGUCCACAGGCUGUAACAGGGUGGAAGAUGGAAUUCUCGGGUGCCAA | 0.567 |
| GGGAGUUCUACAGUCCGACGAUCUUGUCUAGUUUAAUCCUACCUUUAAUAGUUGUGUUUGGUAAAAUUCCCACUUGAAUGUGACACUGAUAAUAAUUAUGCUGAUUUUUAGCAUCUCUUAUAGGAAUCAAAGUUGGAAUUCUCGGGUGCCAA | 3.27 |
| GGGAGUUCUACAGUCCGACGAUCGCUUCAGUGGCCACCAGCCUCGUCACAUACACCAGCAUCUUUCUGUACCUCCUCCCUUUGGUGACCUGAAGUCACUGUGACAGUUCUCCAGGAAGGAGGAGCUUCCUACUUGGAAUUCUCGGGUGCCAA | 0.719 |
| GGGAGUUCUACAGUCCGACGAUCAUCUUUUAACUAGUGUUUCACAAGGAUCCUCUGAAACCCUCUCUGUGCCCCAAGUACAGAUGCCAUUACUUCUGCUUUCGUAUCUCCUCAGGCAAAAGUGGAGGGUGCCUUGGAAUUCUCGGGUGCCAA | 0.261 |
